Experimental data from different studies.
Numbered parts are unrelated; each lists some results of a single study.

Block 1
Target: Ras GTPase-activating protein-binding protein 1, C-terminal RGG region (G3BP1, Homo sapiens, UniProt Q13283)
Sequence of UniProt Q13283 (whole entry, looked up): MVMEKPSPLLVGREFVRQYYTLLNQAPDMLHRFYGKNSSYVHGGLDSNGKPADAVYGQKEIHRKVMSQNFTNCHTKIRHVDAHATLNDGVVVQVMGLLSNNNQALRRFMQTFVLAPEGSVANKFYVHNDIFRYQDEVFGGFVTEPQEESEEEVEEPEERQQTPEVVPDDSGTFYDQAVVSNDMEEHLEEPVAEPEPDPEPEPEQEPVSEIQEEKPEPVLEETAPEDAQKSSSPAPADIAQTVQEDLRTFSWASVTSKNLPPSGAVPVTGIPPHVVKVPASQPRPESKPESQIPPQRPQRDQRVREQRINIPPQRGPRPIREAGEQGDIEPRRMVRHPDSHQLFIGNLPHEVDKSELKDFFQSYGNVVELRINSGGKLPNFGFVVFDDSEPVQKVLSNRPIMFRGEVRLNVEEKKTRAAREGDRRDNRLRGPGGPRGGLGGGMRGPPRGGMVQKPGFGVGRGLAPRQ
Method: RNA Bind-n-Seq
Molecule type: RNA
Sample: in vitro
Tested at: 1 µM
Setting: whole 134-nt RNA, ends assumed
Together with: 150 mM KCl
Relative to: input library
Reading: higher = stronger binding
All sequences stand within: GGGAGUUCUACAGUCCGACGAUC … UGGAAUUCUCGGGUGUCAAGG
With `GUCCUGUGCUACACAUCGUAUGUACCGAAUCGGUUUUUUUGGUUUUUUUGGAAAAAGGAAAGUAUUAUGUUACGCCGUUCGGAUCUGCAC` the log2 enrichment was -1.75.
`GAAGGAAGUAAAAACAAAUGGAAAUGCUUCGGAUAGUGGCAGGGGUGGGGGUUGCUAAGGAAAGGGUGGGAUGGGAGUGGGUAAAGAGUU` gave a log2 enrichment of 1.7.
`CCUCAAGUCCUGUGCUACACAUCGUAUGUACCGAAUCGGAAAGGUGGUUUGGAAAGUAUUAUGUUACGCCGUUCGGAUCUGCACUUCCAG` gave a log2 enrichment of -1.2.
The log2 enrichment of `CAAGUCCUGUGCUACACAUCGUAUGUACCGAAUCGGGGAAAGGAAAGGGGAAAGGAAAGUAUUAUGUUACGCCGUUCGGAUCUGCACUUC` is reported as -1.24.
The log2 enrichment of `UAACUUUAGAGGAGUAUCUGAUGGAUAUGGCAGUGGACGUGGAUUUGGGGAUGGCUAUAAUGGGUAUGGAGGAGGACCUGGAGGUGGCAA` is reported as -0.558.
`UGGCCCUGGUGGCAUGCGGGGAGGAAGAGGUGGCCUCAUGGAUCGUGGUGGUCCCGGUGGAAUGUUCAGAGGUGGCCGUGGUCGAGACAG` has a log2 enrichment of 3.65.
With `UUGACCUAGAGGAUGAGACCAUUGAUGCCGAGGUCAUGAACUCUCUAGCAGUUACUAUGGAUGACUUCCGGGUAAGGACCACACCCGUGC` the log2 enrichment was -2.35.
The log2 enrichment of `CCUGUGCUACACAUCGUAUGUACCGAAUCGGAAAAAAAGGAAAAAAAGGGGAAAAAAAGGGAAAGUAUUAUGUUACGCCGUUCGGAUCUG` is reported as -1.86.
The log2 enrichment of `GACUCUGAAGAAGAAGCUAUGGAGACUACACCAGCCAAAGGAAAGAAAGCUGCAAAAGUUGUUCCUGUGAAAGCCAAGAACGUGGCUGAG` is reported as -1.9.
`ACCAUGCAGGUGGGCAUCUUUUGGAAGUGGGGCAAGGGGGGGAUAGGGAGGGGGGUAACACUUUGGGAACAGGUGGUCCCAGGUCGUUUC` gave a log2 enrichment of -0.921.
`CCUGCUUUUGGGGGUGACCGCCGGAGCGCGGCGUGAGCCCUCCCCCUUGGGAUCCCGCAGCUGACCAGUCGCGCUGACGGACAGACAGAC` gave a log2 enrichment of -2.66.
`CUCAAGUCCUGUGCUACACAUCGUAUGUACCGAAUCGGGGAAGGGAAGGGAAGGAAAGUAUUAUGUUACGCCGUUCGGAUCUGCACUUCC` gave a log2 enrichment of -0.819.
For `AUCAUGCAGGUGGGCAUCUUUGGGAAGUGGGGCAAGGGGGGGAUAGGGAGGGGGGUAACACUUUGGGAACAGGUGGUCCCAGGUCGUUUC`, the log2 enrichment was -1.06.
For `UGGCCCUGGUGGCAUGCGGGGAGGAAGAGGUGGCCUCAUGGAUCGUGGUGGUCCCGGUGGAAUGUUCAGAGGAGGCCGUGGUGGAGACAG`, the log2 enrichment was 3.34.

Block 2
Target: RNA binding protein fox-1 homolog 2, RRM domain, GST-SBP tag (RBFOX2, Homo sapiens, UniProt O43251-10, residues 100-194)
Method: RNA Bind-n-Seq
Molecule type: RNA
Sample: in vitro
Tested at: 365 nM
Setting: natural RNA segment, single round, ends assumed
Relative to: no-protein control
Reading: higher = stronger binding
All sequences stand within: GGGAGUUCUACAGUCCGACGAUC … UGGAAUUCUCGGGUGCCAA
Residues (chain): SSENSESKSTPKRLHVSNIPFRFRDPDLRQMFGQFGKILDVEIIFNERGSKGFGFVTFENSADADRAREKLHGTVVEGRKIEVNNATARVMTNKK
`UGGCUCCGCCGUUAAGAGUGACCAGCUUAGCCACAGUUCUGGUGCUCAGCUUGAAGACAAGUCACAGGUGGGCAAGUAUCACUGCCUGAACAGGGCUGUUAAAGGUCCAU`: “RBNS enrichment (R)” 0.328.
`CCUCCCACCCCCAUGGGUGCUAGGAGGAGGUGACUUUAUAUACCAGCUUCAUUGGGCUGCUUCCUCUGAAGGAAUCCUUGAGAGUCAGUGAAUGUUCUAUCAGCAUGAGU`: “RBNS enrichment (R)” 1.
For `AUUGCAAAUAGUGAUGUAGUUUUAACCAGUAUGGAUUAGUUCAGGGAUGAACUGCUCCCUCUAGCCUUACUGGCUCUGAUCCACAGGGUUUUGUUUUGUUUUGUUUUGUU`, “RBNS enrichment (R)” read 0.718.
`CUAGUUAUCUUUUAAAGACUGUGGUGGUCUUAAAAGGGAACAAAAGCUACUACAGACUAAAUUUAUGUUUCACCUAGAAUAUAAAACUGUUAGACAUUGGGUUCUCCUUU` — result for “RBNS enrichment (R)”: 0.314.
`GUUCUCCAAGAAGCAGACGUUGGUCUAAGCCUUCAAGAGCUGCCUUAGGGUUUGGGAGAAGUUGGAAUUAACCCAAGGUCAAGUCCUUUCUUUUGCCUCCGAGAUGACCA`: “RBNS enrichment (R)” 0.259.
For `CAGCUGCUAGAGGGGAAAAACAAUUAAGACAAUGGAAAAGGAAAAAGGAAUGAAGGAACCUCCCUCCCUGAAAGCUUUUCCUGCUUCUGAGACUGUGUUCAGCCCUUUCC`, “RBNS enrichment (R)” read 0.736.
`CUUUCUUUCUAACCUUGUUCAGAUUGAGGUGAAAAGUCCAUCUUGCUGAUUUGAUGAUUGAAAUGUGAAAGUGAAGUGGAAGGAAUGAAUGAAGUGUGUUUUUUUUUUCU`: “RBNS enrichment (R)” 1.48.
For `GAAGGUUCCAGCAGGUCCCCCACCCUCCCCUCCUCCUCCUACUUCUCCUCUUGACAGCGAGGACAGGAGGGGGACAAGGGGACACCUGGGCAGACCCGCCGGCUCUCCCC`, “RBNS enrichment (R)” read 0.281.
`AUUGUUUUUGCACCAGACGAACAGUGAGGAAAUUCGGAGCUAUACAUAUGUGCAGAAGGUUACUACCUAGGGUUUAUGCUUAAUUUUAAUUGGAGGAAAUGAAUGCUGAU` — result for “RBNS enrichment (R)”: 2.08.
`ACUUUACCAGCCCCUGAGAGGACCAGGAGGAGCAUCCUUGACCUUCAUUUAACUUGGCUCACUUCUCUUCAGACUUGGGUAGAAGUGCAGAGCCACAGAAUUGCUUUCCU` — result for “RBNS enrichment (R)”: 0.431.
`UGCACUAAUCUAUCUGAAGAAAAAAACUAUAUCAACUUUGGUAUCUACUUUCCGUUUACUUCAAUCCUUGCCUUUUUGGUCAUUGUUAUAAUGCCAGCUUUAGGACAGAA` — result for “RBNS enrichment (R)”: 1.23.
`UUUACCCUCUUGAAAUUUCUUAGCCAGCAACUUGUUCUGCAGGGGCCCACUGAAGCAGAAGGUUUUUCUCUGGGGGAACCUGUCUCAGUGUUGACUGCAUUGUUGUAGUC`: “RBNS enrichment (R)” 0.362.

Block 3
Target: Prothrombin, mature alpha-thrombin (F2, Homo sapiens, UniProt P00734)
Method: aptamer microarray, sandwich
Molecule type: DNA with 2'F-ANA
Sample: in vitro
Tested at: 200 nM
Setting: whole 15-mer aptamer, many near background
Together with: Cy3 exosite-II aptamer, 400 nM
Reading: higher = stronger binding
Strand: GGTTGGTGTGGTTGG
Under “mean fluorescence intensity”, `2'F-ANA at 1 2 5 6 7 11 13` is recorded as 48.3 a.u.
For `2'F-ANA at 3 4 8 10 11 12 13`, “mean fluorescence intensity” read 291 a.u.
Under “mean fluorescence intensity”, `2'F-ANA at 1 2 5 7 8 13` is recorded as 53.5 a.u.
`2'F-ANA at 3 5 11 12 15` — result for “mean fluorescence intensity”: 197 a.u.
Under “mean fluorescence intensity”, `2'F-ANA at 1 4 5 6 9 10 14` is recorded as 56.9 a.u.
For `2'F-ANA at 1 3 7 9 11 12`, “mean fluorescence intensity” read 448 a.u.
Under “mean fluorescence intensity”, `2'F-ANA at 2 3 5 10 15` is recorded as 56.2 a.u.
Under “mean fluorescence intensity”, `2'F-ANA at 1 2 3 8 10 11 13` is recorded as 63.1 a.u.
`2'F-ANA at 2 4 8 9 10 14 15`: “mean fluorescence intensity” 61.6 a.u.
For `2'F-ANA at 4 6 8 12 14`, “mean fluorescence intensity” read 113 a.u.
`2'F-ANA at 1 2 5 7 8 9 10 11 12 13`: “mean fluorescence intensity” 272 a.u.
`2'F-ANA at 1 3 5 6 8 9 10 12 14`: “mean fluorescence intensity” 46.8 a.u.
Under “mean fluorescence intensity”, `2'F-ANA at 3 5 7 9 12 14 15` is recorded as 57.1 a.u.
Under “mean fluorescence intensity”, `2'F-ANA at 7 9 12 15` is recorded as 801 a.u.
Under “mean fluorescence intensity”, `2'F-ANA at 1 2 3 4 5 6 7 13 14 15` is recorded as 49.4 a.u.
For `2'F-ANA at 2 3 7 8 11 12 14`, “mean fluorescence intensity” read 551 a.u.
Under “mean fluorescence intensity”, `2'F-ANA at 4 5 7 12 13 15` is recorded as 90 a.u.
`2'F-ANA at 2 4 6 11 13 14 15` — result for “mean fluorescence intensity”: 137 a.u.
`2'F-ANA at 2 3 5 7 8 9 11 13` — result for “mean fluorescence intensity”: 80 a.u.
`2'F-ANA at 1 2 3 6 7 8 9 10 11`: “mean fluorescence intensity” 78.4 a.u.
`2'F-ANA at 1 2 3 6 7 8 9 10 15`: “mean fluorescence intensity” 84.8 a.u.
`2'F-ANA at 3 4 5 6 7 12 13 14`: “mean fluorescence intensity” 79 a.u.
Under “mean fluorescence intensity”, `2'F-ANA at 1 2 5 6 7 8 12 13 15` is recorded as 88.5 a.u.
Under “mean fluorescence intensity”, `2'F-ANA at 3 4 7 9 12 14 15` is recorded as 326 a.u.
`2'F-ANA at 3 4 6 7 8 10 14 15` — result for “mean fluorescence intensity”: 235 a.u.

Block 4
Target: Interferon regulatory factor 5, full length, phosphomimetic (IRF5, Homo sapiens, UniProt Q13568-2, residues 1-514, S451D/S453D/S456D/S462D)
Method: protein-binding microarray
Molecule type: double-stranded DNA, one strand shown
Sample: in vitro
Tested at: 940 nM top
Setting: 60-bp whole probe
Together with: salmon DNA 0.4 mg/ml
Relative to: random background probes
Reading: higher = stronger binding
All sequences stand within: GCCTAGCAC … GTCTTGATTCGCTTGACGCTGCTG
`TTAGATCTCAGTCTCGATAAGTGCTAG` — result for “fitted relative affinity”: 2.75 z-score.
Under “fitted relative affinity”, `TTAGGTTCCATTTTCCTTTAGTGCTAG` is recorded as 1.04 z-score.
`GACGGAATCCTACTGCTGACGTGCTAG`: “fitted relative affinity” -0.739 z-score.
Under “fitted relative affinity”, `GACGCTTTCGGGACTGGGGACGTGCTA` is recorded as 1.96 z-score.
`GTCGATATCAGACTGGAGACGTGCTAG`: “fitted relative affinity” -0.372 z-score.
Under “fitted relative affinity”, `TTAGGTTACGGTCTCGGTTAGTGCTAG` is recorded as 2.06 z-score.
For `TTAGGTATCGACATTCGGTTAGTGCTA`, “fitted relative affinity” read 4.64 z-score.
`TTAGCTTTCAGACTGGATTAGTGCTAG` — result for “fitted relative affinity”: -0.0966 z-score.
For `GACGGTTTCCTACTGCTGGCGTGCTAG`, “fitted relative affinity” read 1.06 z-score.
`GAATATATGTATATATGTGTGTGCTAG`: “fitted relative affinity” -0.27 z-score.
`GACGATTTCAGTCTCGATACGTGCTAG` — result for “fitted relative affinity”: 3.87 z-score.
`TTAGGACTGGGGTATCGGTTAGTGCTA`: “fitted relative affinity” 2.51 z-score.
`GACTGACTGGGTCTCGGGACGTGCTAG`: “fitted relative affinity” -0.0789 z-score.
For `TTAGGTCTGCTACTGCTTTAGTGCTAG`, “fitted relative affinity” read -0.266 z-score.
For `TTGGGACTGGGGTATCGGTTAGTGCTA`, “fitted relative affinity” read 2.34 z-score.
For `GAGGGTATCGGGTATCGGGACGTGCTA`, “fitted relative affinity” read 3.89 z-score.

Repeated from above (block 4):
`GAATATATGTATATATGTGTGTGCTAG`: “fitted relative affinity” -0.27 z-score.
`GACGATTTCAGTCTCGATACGTGCTAG` — result for “fitted relative affinity”: 3.87 z-score.
`TTAGGACTGGGGTATCGGTTAGTGCTA`: “fitted relative affinity” 2.51 z-score.
`GACTGACTGGGTCTCGGGACGTGCTAG`: “fitted relative affinity” -0.0789 z-score.
For `TTAGGTCTGCTACTGCTTTAGTGCTAG`, “fitted relative affinity” read -0.266 z-score.
For `TTGGGACTGGGGTATCGGTTAGTGCTA`, “fitted relative affinity” read 2.34 z-score.
For `GAGGGTATCGGGTATCGGGACGTGCTA`, “fitted relative affinity” read 3.89 z-score.
